{"data": "Experimental data gathered from unrelated publications", "TDP1": "Tyrosyl-DNA phosphodiesterase 1 (TDP1, Homo sapiens, UniProt Q9NUW8)", "MAPK14": "Mitogen-activated protein kinase 14 (MAPK14, Homo sapiens, UniProt Q16539)", "TXNRD1": "Thioredoxin reductase 1, cytoplasmic (TXNRD1, Homo sapiens, UniProt Q16881)", "ABCC1": "Multidrug resistance-associated protein 1 (ABCC1, Homo sapiens, UniProt P33527)", "Seed linoleate 13S-lipoxygenase-1": "Seed linoleate 13S-lipoxygenase-1 (Glycine max, UniProt P08170)", "JAK2": "Tyrosine-protein kinase JAK2 (JAK2, Homo sapiens, UniProt O60674)", "note": "Compare with care: the assays were run in different laboratories. Numbers after ± are the reported error.", "chain of UniProt Q16539 (whole entry, looked up)": "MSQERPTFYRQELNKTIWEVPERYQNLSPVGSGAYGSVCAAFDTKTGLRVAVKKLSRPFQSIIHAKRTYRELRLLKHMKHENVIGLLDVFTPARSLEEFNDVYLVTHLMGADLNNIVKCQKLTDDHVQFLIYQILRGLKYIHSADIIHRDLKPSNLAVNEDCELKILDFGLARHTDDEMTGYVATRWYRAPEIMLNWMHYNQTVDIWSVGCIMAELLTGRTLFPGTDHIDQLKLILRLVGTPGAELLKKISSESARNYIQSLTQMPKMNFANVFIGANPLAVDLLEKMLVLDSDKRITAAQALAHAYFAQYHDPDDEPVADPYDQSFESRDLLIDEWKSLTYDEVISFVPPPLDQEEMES", "chain of UniProt O60674 (whole entry, looked up)": "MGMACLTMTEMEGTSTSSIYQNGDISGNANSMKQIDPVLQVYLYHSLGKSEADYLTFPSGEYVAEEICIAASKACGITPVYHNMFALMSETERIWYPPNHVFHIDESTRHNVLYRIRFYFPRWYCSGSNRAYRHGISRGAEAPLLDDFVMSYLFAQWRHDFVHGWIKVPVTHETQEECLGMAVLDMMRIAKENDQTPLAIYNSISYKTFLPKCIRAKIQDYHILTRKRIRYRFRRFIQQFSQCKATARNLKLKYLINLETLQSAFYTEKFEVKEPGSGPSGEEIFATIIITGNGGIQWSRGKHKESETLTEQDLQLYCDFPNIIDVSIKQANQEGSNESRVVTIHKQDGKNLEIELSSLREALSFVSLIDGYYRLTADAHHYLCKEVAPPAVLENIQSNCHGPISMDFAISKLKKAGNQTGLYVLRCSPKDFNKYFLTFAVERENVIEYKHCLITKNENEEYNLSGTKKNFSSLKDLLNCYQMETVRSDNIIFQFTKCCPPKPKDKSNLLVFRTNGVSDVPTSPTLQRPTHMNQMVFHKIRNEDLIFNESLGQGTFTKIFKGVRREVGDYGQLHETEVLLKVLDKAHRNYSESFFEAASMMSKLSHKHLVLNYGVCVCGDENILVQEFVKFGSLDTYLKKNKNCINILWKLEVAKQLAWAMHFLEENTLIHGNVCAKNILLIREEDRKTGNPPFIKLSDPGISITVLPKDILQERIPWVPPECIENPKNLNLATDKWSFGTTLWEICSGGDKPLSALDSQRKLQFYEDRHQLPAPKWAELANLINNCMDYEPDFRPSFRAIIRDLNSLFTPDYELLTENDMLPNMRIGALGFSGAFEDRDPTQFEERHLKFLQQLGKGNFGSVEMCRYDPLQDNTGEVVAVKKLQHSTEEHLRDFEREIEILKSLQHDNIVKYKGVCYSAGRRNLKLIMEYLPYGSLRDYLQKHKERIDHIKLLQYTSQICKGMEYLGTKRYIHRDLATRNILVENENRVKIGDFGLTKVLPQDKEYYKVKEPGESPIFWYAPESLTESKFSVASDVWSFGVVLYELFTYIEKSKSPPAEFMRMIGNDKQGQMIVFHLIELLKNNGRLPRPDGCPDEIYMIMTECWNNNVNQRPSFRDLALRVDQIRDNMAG", "chain of UniProt Q16881 (whole entry, looked up)": "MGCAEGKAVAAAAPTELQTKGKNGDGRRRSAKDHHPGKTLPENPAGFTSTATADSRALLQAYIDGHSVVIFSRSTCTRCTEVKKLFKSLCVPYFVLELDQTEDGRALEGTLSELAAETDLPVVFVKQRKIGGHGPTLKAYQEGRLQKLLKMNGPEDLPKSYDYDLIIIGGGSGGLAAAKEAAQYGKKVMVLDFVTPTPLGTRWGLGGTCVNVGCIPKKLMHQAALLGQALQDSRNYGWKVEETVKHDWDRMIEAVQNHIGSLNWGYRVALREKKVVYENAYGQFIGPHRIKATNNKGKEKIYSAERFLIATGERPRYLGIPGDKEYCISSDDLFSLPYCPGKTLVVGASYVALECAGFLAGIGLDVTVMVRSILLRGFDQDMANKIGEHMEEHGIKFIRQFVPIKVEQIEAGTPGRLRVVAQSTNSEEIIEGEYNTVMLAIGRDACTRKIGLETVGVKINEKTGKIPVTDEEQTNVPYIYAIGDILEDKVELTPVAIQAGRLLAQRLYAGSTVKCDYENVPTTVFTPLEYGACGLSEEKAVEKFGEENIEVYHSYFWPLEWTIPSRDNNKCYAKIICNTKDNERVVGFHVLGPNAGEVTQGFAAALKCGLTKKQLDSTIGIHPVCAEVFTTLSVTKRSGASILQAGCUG", "chain of UniProt P08170 (whole entry, looked up)": "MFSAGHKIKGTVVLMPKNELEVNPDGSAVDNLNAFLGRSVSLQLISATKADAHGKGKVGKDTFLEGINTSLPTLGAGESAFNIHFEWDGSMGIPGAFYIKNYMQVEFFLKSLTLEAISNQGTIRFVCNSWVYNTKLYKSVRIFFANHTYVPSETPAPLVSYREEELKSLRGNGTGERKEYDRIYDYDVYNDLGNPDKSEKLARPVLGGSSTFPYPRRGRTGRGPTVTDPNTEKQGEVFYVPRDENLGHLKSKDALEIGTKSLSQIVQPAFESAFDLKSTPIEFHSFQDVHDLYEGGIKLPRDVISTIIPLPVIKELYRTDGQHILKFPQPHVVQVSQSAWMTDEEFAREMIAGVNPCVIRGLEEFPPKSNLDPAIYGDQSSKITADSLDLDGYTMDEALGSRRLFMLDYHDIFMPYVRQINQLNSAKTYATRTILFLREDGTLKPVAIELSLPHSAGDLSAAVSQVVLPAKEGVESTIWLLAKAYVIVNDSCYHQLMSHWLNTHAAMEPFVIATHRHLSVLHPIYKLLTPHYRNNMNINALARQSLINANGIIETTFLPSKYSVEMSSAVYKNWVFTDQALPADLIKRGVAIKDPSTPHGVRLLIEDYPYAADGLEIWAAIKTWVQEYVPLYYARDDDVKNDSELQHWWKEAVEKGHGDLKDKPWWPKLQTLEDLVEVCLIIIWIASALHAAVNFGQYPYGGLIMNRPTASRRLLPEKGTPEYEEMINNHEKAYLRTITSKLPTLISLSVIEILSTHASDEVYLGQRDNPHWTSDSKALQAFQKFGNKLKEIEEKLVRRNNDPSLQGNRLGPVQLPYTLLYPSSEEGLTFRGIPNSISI", "chain of UniProt P33527 (whole entry, looked up)": "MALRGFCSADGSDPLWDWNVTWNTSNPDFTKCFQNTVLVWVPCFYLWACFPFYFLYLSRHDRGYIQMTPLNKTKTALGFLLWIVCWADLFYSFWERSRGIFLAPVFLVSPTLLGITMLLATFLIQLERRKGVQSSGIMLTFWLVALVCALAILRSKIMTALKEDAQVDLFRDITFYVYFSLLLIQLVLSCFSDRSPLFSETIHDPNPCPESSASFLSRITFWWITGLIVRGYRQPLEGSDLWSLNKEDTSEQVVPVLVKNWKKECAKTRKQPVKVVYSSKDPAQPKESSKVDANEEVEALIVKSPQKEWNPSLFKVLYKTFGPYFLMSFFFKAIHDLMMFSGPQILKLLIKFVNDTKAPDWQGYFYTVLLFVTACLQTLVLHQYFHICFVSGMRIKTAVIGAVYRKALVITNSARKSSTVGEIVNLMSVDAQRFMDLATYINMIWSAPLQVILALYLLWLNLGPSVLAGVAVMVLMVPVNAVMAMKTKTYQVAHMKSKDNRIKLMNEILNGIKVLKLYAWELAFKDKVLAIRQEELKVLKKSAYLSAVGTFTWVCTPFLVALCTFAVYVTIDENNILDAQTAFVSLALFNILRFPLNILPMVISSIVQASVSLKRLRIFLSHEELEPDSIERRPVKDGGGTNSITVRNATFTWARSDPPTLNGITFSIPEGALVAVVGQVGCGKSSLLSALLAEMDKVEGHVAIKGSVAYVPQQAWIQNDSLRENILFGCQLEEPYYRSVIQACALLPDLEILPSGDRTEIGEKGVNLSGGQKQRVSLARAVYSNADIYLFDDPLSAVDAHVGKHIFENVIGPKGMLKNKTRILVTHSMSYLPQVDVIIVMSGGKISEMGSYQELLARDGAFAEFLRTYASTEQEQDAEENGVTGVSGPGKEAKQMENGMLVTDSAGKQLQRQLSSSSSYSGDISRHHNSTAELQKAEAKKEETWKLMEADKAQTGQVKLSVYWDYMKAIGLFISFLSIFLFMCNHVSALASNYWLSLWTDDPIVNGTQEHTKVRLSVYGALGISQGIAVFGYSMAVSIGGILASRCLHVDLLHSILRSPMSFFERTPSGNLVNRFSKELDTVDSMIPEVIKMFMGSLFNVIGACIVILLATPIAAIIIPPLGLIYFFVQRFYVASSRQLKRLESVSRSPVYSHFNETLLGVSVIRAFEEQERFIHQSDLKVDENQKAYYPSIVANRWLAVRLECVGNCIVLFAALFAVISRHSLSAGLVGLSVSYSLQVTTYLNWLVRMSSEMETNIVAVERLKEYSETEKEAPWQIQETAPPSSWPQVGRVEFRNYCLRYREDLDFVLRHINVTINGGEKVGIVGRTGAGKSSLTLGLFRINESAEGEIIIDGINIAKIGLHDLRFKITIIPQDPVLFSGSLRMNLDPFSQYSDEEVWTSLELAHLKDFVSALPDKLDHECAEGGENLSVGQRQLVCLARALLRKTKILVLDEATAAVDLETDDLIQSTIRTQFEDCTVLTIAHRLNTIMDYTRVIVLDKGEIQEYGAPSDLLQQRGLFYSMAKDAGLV", "chain of UniProt Q9NPH5 (whole entry, looked up)": "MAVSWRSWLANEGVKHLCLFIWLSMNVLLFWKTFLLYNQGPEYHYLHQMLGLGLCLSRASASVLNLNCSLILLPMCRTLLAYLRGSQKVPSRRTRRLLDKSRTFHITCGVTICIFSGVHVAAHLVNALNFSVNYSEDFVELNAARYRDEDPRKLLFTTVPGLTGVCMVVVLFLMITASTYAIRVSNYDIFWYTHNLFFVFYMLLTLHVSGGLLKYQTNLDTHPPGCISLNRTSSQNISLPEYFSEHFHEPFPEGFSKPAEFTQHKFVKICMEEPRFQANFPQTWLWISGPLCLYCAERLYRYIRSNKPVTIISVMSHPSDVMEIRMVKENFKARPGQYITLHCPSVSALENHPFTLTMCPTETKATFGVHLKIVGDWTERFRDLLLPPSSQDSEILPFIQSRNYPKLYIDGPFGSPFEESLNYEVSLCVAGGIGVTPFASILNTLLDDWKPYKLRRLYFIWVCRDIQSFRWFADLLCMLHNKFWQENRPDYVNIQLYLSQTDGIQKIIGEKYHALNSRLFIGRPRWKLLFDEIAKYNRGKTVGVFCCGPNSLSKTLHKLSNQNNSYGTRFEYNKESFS"}
{"SMILES": "O=C(O)c1ccc(Nc2c(-c3ccc(CON=Cc4ccc(-c5cnccn5)cc4)cc3)nc3cc(-c4ccccc4)ccn23)cc1", "target": "TDP1", "assay": "enzyme activity", "conditions": "100 µM, primary screen", "inhibition": "> 90%"}
{"SMILES": "O=C1c2ccccc2C(=O)c2c1ccc1c2C(C(=O)Nc2ccccc2)C(=O)C1c1ccccc1 (stereo not shown)", "target": "mushroom tyrosinase", "assay": "enzyme activity, inhibitor, spectrophotometry", "conditions": "50 µg/mL, with: L-DOPA substrate", "inhibition": "16.2 ± 0.23%"}
{"SMILES": "c1ccc(CNc2cnccn2)cc1", "target": "MAPK14", "assay": "primary fragment screen", "conditions": "1 mM, with: ATP 10 µM", "inhibition": "55.4%"}
{"SMILES": "c1ccc2c(c1)Nc1nc3ccccc3nc1N2", "target": "NADPH oxidase 4 (NOX4, Homo sapiens, UniProt Q9NPH5)", "assay": "enzyme activity, inhibitor, fluorescence", "conditions": "100 µM, cell membranes", "inhibition": "40 to 50%"}
{"SMILES": "COc1cc(Oc2c(O)c(Cl)c(C)c(Cl)c2OC)c(C(=O)O)c(C)c1O", "target": "Gag-Pol polyprotein, reverse transcriptase (gag-pol, Human immunodeficiency virus 1, UniProt P03366)", "assay": "enzyme activity, inhibitor, PicoGreen fluorescence", "conditions": "10 µM", "inhibition": "9.7 ± 0.8%"}
{"SMILES": "CC[C@H](C)[C@H](NC(=O)[C@@H]1CSSC[C@H](NC(=O)[C@H](Cc2ccc(O)cc2)NC(=O)CNC(C)=O)C(=O)N[C@@H](CO)C(=O)N[C@@H](CCCNC(=N)N)C(=O)N[C@@H](CO)C(=O)N[C@@H](Cc2ccc(O)cc2)C(=O)N2CCC[C@H]2C(=O)N2CCC[C@H]2C(=O)N[C@@H](C(C)C)C(=O)N1)C(=O)N1CCC[C@H]1C(=O)N[C@@H](CC(=O)O)C(N)=O", "target": "Mannan-binding lectin serine protease 1 (Homo sapiens, UniProt P48740)", "assay": "enzyme activity, inhibitor", "conditions": "15 µM, with: 10 nM MASP-1", "inhibition": "20%"}
{"SMILES": "COc1cc(/C=C/c2cc(C)n[nH]2)ccc1O", "target": "TXNRD1", "assay": "enzyme activity", "system": "MCF7", "conditions": "25 µM, 48 h", "inhibition": "37%"}
{"SMILES": "O=C1c2ccccc2C(=O)c2c1ccc1c2C(C(=O)Nc2ccccc2Cl)C(=O)C1c1ccccc1 (stereo not shown)", "target": "mushroom tyrosinase", "assay": "enzyme activity, inhibitor, spectrophotometry", "conditions": "25 µg/mL, with: L-DOPA substrate", "inhibition": "43.23 ± 0.15%"}
{"SMILES": "COc1cc(OC)c2c(c1)C(=O)c1cc3oc(=O)cc(C)c3c(O)c1C2=O", "target": "mushroom tyrosinase", "assay": "enzyme activity", "conditions": "50 µg/mL, with: L-DOPA", "inhibition": "49.4 ± 0.31%"}
{"SMILES": "O=[N+]([O-])c1ccc(Cn2cc(Cn3cc(CO)nn3)nn2)cc1", "target": "Cytohesin-3, PH domain (Cyth3, Mus musculus, UniProt O08967)", "assay": "PI(3,4,5)P3 binding, competitive SPR", "conditions": "5 µM, PH domain 500 nM", "inhibition": "52 ± 4%"}
{"SMILES": "O=C(NCCCN1CCOCC1)c1ccc(-n2ncc(Cl)c(Cl)c2=O)cc1", "target": "TXNRD1", "assay": "enzyme activity in cells, inhibitor", "system": "FaDu", "conditions": "1 µM", "inhibition": "~40%"}
{"SMILES": "CNc1cncc(-c2ccc(OC)c(OC)c2)n1", "target": "MAPK14", "assay": "primary fragment screen", "conditions": "0.25 mM, with: ATP 10 µM", "inhibition": "41.8%"}
{"SMILES": "CC1CC(=O)c2c3c(n(CCc4ccccc4)c2C1)-c1ccccc1C3=O (stereo not shown)", "target": "ABCC1", "assay": "calcein efflux", "system": "HEK293 expressing MRP1", "conditions": "2 µM", "scale": "baseline: verapamil 35 µM as 100%", "inhibition": "inhibited"}
{"SMILES": "O=C1c2ccccc2C(=O)c2c1ccc1c2C(C(=O)Nc2ccc(Cl)cc2)C(=O)C1c1ccccc1 (stereo not shown)", "target": "mushroom tyrosinase", "assay": "enzyme activity, inhibitor, spectrophotometry", "conditions": "50 µg/mL, with: L-DOPA substrate", "inhibition": "28.1 ± 0.8%"}
{"SMILES": "CCn1c(SC(C)C(=O)NC2CCCCC2)nnc1C1CCN(C(=O)Nc2ccccc2)CC1 (stereo not shown)", "target": "Seed linoleate 13S-lipoxygenase-1", "assay": "enzyme activity, inhibitor", "conditions": "250 µM", "inhibition": "87.6%"}
{"SMILES": "Cc1cc(O)c2c(c1)C(=O)c1cc3oc(=O)cc(-c4ccccc4)c3c(O)c1C2=O", "target": "mushroom tyrosinase", "assay": "enzyme activity", "conditions": "50 µg/mL, with: L-DOPA", "inhibition": "22.3 ± 0.17%"}
{"SMILES": "CCn1c(SC(C)C(=O)Nc2ccc(C)cc2C)nnc1C1CCN(C(=O)Nc2ccccc2)CC1 (stereo not shown)", "target": "Seed linoleate 13S-lipoxygenase-1", "assay": "enzyme activity, inhibitor", "conditions": "250 µM", "inhibition": "85.6%"}
{"SMILES": "CC(=O)Nc1cc(COc2c(Cl)cc(CC(N)C(=O)O)cc2Cl)c2oc(-c3ccccc3)nc2c1 (stereo not shown)", "target": "Neutral amino acid transporter A (SLC1A4, Homo sapiens, UniProt P43007)", "assay": "L-alanine uptake", "system": "Xenopus oocytes", "conditions": "1 and 10 µM, 30 min, with: L-[14C]alanine 50 µM", "inhibition": "no inhibition"}
{"SMILES": "O=C1NCCN=C1CC(=O)c1ccccc1", "target": "MAPK14", "assay": "primary fragment screen", "conditions": "1 mM, with: ATP 10 µM", "inhibition": "92.3%"}
{"SMILES": "C=C1C(=O)C23CCC4C(C)(C)CCCC4(C)C2C(O)CC1C3 (single isomer, unassigned)", "target": "Peroxiredoxin-2 (PRDX2, Homo sapiens, UniProt P32119)", "assay": "peroxidase activity, inhibitor, Amplex Red", "conditions": "concentration not given", "inhibition": "inhibited"}
{"SMILES": "O=C1c2ccccc2C(=O)c2c1ccc1c2C(C(=O)Nc2ccc(Br)cc2)C(=O)C1c1ccccc1 (stereo not shown)", "target": "mushroom tyrosinase", "assay": "enzyme activity, inhibitor, spectrophotometry", "conditions": "100 µg/mL, with: L-DOPA substrate", "inhibition": "75 ± 1.36%"}
{"SMILES": "COc1cc(/C=C/C(=O)c2ccc(Br)cc2)ccc1OCc1ccccc1", "target": "ABCC1", "assay": "calcein efflux, flow cytometry", "conditions": "10 µM", "inhibition": "no inhibition"}
{"SMILES": "Cc1cc(=O)oc2cc3c(c(C)c12)C(=O)c1c(O)cccc1C3=O", "target": "mushroom tyrosinase", "assay": "enzyme activity", "conditions": "100 µg/mL, with: L-DOPA", "inhibition": "39.76 ± 0.12%"}
{"SMILES": "COc1cc(C(=O)NC2CCC(N3CCN(CC4CCC5(CCCC5)C4)CC3)CC2)c(F)cc1Nc1ncc2c(n1)N(C1CCCC1(F)F)CC(F)(F)C(=O)N2C (stereo not shown)", "target": "JAK2", "assay": "cell-free assay, TR-FRET", "conditions": "10 µM", "inhibition": "7.69%"}
{"SMILES": "Cc1cc(O)c2c(c1)C(=O)c1cc3oc(=O)cc(-c4ccc(Cl)cc4)c3c(O)c1C2=O", "target": "mushroom tyrosinase", "assay": "enzyme activity", "conditions": "50 µg/mL, with: L-DOPA", "inhibition": "21.69 ± 0.21%"}
{"SMILES": "Cc1cncc(Oc2ccc(C=NOCc3ccc4nc(-c5ccccc5)c(Nc5ccc(C(=O)O)cc5)n4c3)cc2)n1", "target": "TDP1", "assay": "enzyme activity, inhibitor", "conditions": "100 µM", "inhibition": "111%"}
{"SMILES": "Cc1cc(O)cc2c1C(=O)c1c(cc3oc(=O)cc(-c4ccc(Cl)cc4)c3c1O)C2=O", "target": "mushroom tyrosinase", "assay": "enzyme activity", "conditions": "100 µg/mL, with: L-DOPA", "inhibition": "59.7 ± 0.11%"}
{"SMILES": "COc1cc(O)c2c(=O)cc(-c3ccccc3)oc2c1", "target": "Dipeptidyl peptidase 4 (DPP4, Sus scrofa, UniProt P22411)", "assay": "enzyme activity, inhibitor, absorbance", "conditions": "50 µg/mL", "inhibition": "26.1%"}
{"SMILES": "Cc1c2c(cc3oc(=O)cc(-c4ccc(Cl)cc4)c13)C(=O)c1cccc(O)c1C2=O", "target": "mushroom tyrosinase", "assay": "enzyme activity", "conditions": "50 µg/mL, with: L-DOPA", "inhibition": "51.81 ± 0.19%"}
{"SMILES": "O=C(NCc1ccncc1)c1cc(F)cc(F)c1", "target": "MAPK14", "assay": "primary fragment screen", "conditions": "1 mM, with: ATP 10 µM", "inhibition": "57.3%"}
{"SMILES": "COc1c2c(cc3oc(=O)cc(-c4ccc(Cl)cc4)c13)C(=O)c1cc(C)cc(O)c1C2=O", "target": "mushroom tyrosinase", "assay": "enzyme activity", "conditions": "25 µg/mL, with: L-DOPA", "inhibition": "69.6 ± 0.74%"}
{"SMILES": "O=c1c2ccccc2ncn1-c1ccccc1F", "target": "MAPK14", "assay": "primary fragment screen", "conditions": "1 mM, with: ATP 10 µM", "inhibition": "67.6%"}
{"SMILES": "COc1cc(OC)c2c(c1)C(=O)c1cc3oc(=O)cc(-c4ccccc4)c3c(O)c1C2=O", "target": "mushroom tyrosinase", "assay": "enzyme activity", "conditions": "100 µg/mL, with: L-DOPA", "inhibition": "62.6 ± 0.65%"}
{"SMILES": "CCn1c(C)c(C(=O)c2ccccc2)c(=O)n1-c1ccc(C)c(C)c1", "target": "JAK2", "assay": "enzyme activity, inhibitor, ADP detection", "conditions": "1 µM", "inhibition": "57.4%"}
{"note": "Excerpt of the above:"}
{"SMILES": "CCn1c(SC(C)C(=O)Nc2ccc(C)cc2C)nnc1C1CCN(C(=O)Nc2ccccc2)CC1 (stereo not shown)", "target": "Seed linoleate 13S-lipoxygenase-1", "assay": "enzyme activity, inhibitor", "conditions": "250 µM", "inhibition": "85.6%"}
{"SMILES": "O=C1c2ccccc2C(=O)c2c1ccc1c2C(C(=O)Nc2ccccc2Cl)C(=O)C1c1ccccc1 (stereo not shown)", "target": "mushroom tyrosinase", "assay": "enzyme activity, inhibitor, spectrophotometry", "conditions": "25 µg/mL, with: L-DOPA substrate", "inhibition": "43.23 ± 0.15%"}
